Experimental data pooled from the literature.
Compare with care: the assays were run in different laboratories. ± marks the error that the study gave.

C#CCNC(=O)C(CC(C)(C)F)NC(c1ccc(-c2ccc(S(C)(=O)=O)cc2)cc1)C(F)(F)F (centres unmarked) — cysteine adduct formation (LC-MS UV trace; aqueous buffer; concentration not given, 23 h, pH 5.5, 37 °C, added: cysteine 10 mM): < 1%
NC[C@@H](C(=O)Nc1ccc(-c2cn[nH]c2)cc1)c1ccccc1 — cornea score (OECD 405 eye irritation; New Zealand White rabbit, eye; topical, 0.1%, 48 h (day 3), scale 0 to 4; direction not given): 0
O=c1[nH]c(=O)n(C2OC(CO)C(O)C2O)cc1-n1nnc2c1CCC1C(CO)C1CC2 (mixture of isomers) — average fluorescence lifetime (frequency-domain fluorometry; methanol): 2.7 ns
CNC(=O)N[C@]1(C)CCC[C@@]2(C)C3CC[C@@]4(C)C[C@]3(CCC21)CC4=O (single isomer, unassigned) — relative error (rat plasma; 400 ng/mL, freeze-thaw stability, three cycles; reference: nominal concentration): 0.8%
O=C([O-])CN1CCN(CC(=O)[O-])CCN(CC(=O)NC[C@H]2CC[C@H](C(=O)N[C@H](Cc3cnc4ccccc4c3)C(=O)NCCCC[C@H](NC(=O)N[C@@H](CCC(=O)O)C(=O)O)C(=O)O)CC2)CCN(CC(=O)[O-])CC1.[64Cu+2] — distribution half-life (ICR mouse, male, blood; intravenous, 0.74 MBq): 1.2 min
CC(C)(O)c1ncc([S@](N)(=O)=NC(=O)Nc2c3c(cc4c2CCC4)CCC3)s1 — Tmax (healthy human volunteers, plasma; oral, 50 mg twice daily, day 1, fed, enteric-coated tablet): 4 h
COCC1CN(C2CCN(c3cc(OC)c(Nc4ncc(Br)c(Nc5ccc6c(c5P(C)(C)=O)OCCO6)n4)cc3C)CC2)C1 — patients with urine protein positive (human; oral, 10 to 240 mg once daily, safety set, all grades): 14.8%
CC(C)[C@H](NC(=O)[C@@H]1CCCN1C(=O)[C@H](CCCNC(=N)N)NC(=O)[C@H](CS)NC(=O)[C@H](Cc1c[nH]c2ccccc12)NC(=O)[C@H](CCCNC(=N)N)NC(=O)[C@@H](Cc1ccccc1)NC(=O)[C@H](Cc1c[nH]cn1)NC(=O)[C@H](CCC(=O)O)NC(=O)[C@H](CS)NC(=O)[C@H](CS)NC(=O)[C@@H]1CC(=O)N[C@@H](CCCNC(=N)N)C(=O)NCC(=O)N[C@@H](CC(=O)O)C(=O)N[C@H](Cc2ccc(O)cc2)C(=O)N1)C(N)=O [technetium-99m labelled] — tumour-to-tissue ratio (C57 mice B16/F1 melanoma female; iv, 2 h, added: NDP-MSH blockade; reference: tumour over lung): 2.26
COc1cc2c(cc1OC)CN(CCCCn1ccc3cc(OCC[18F])ccc31)C2 — muscle uptake (male ICR mice; intravenous, 280 kBq, 60 min post-injection): 1.93 ± 0.17 %ID/g
CC1=C(C2=C(C)C(=O)c3c(cc(O)c(O)c3Cc3ccccc3)C2=O)C(=O)c2cc(O)c(O)c(Cc3ccccc3)c2C1=O (racemic) — degraded compound (rat plasma; 100 µM, 1 h): 1 ± 0.5%
CC(C)c1cnc(-c2cc(Cl)ccc2F)cc1Nc1ccncc1C(=O)NC(CO)CO — patients with treatment-related adverse event (monotherapy, item: rash; human patients; oral, dose not given, grade 1, phase I A): 7.1%
CC[N+]1=C(C=CC=CC=C2N(CCCCCC(=O)O)c3ccc4c(S(=O)(=O)[O-])cc(S(=O)(=O)[O-])cc4c3C2(C)C)C(C)(C)c2c1ccc1c(S(=O)(=O)[O-])cc(S(=O)(=O)[O-])cc21.[K+].[K+].[K+] — extinction coefficient (100% serum; pH 7.4): 250000 M⁻¹ cm⁻¹
CN1C(=O)[C@@H](Cc2ccc(O)cc2)NC(=O)CNC(=O)[C@H](Cc2ccc3ccccc3c2)NC(=O)[C@H](CCCNC(=N)N)NC(=O)[C@H]1CCCNC(=O)c1ccc(CNC(=O)CN2CCN(CC(=O)O)CCN(CC(=O)O)CCN(CC(=O)O)CC2)cc1 [gallium-68 labelled] — total effective dose (OLINDA/EXM; human patients; 185 MBq): 2.89 mSv
Cc1ccc(-c2ccc(-c3cc4sccc4o3)cn2)nc1 — radiative decay rate constant (TCSPC; toluene): 0.67 ns⁻¹
CC(=O)N[C@H](CSSC[C@H](N)C(=O)O)C(=O)N[C@H](C)C(=O)N[C@H](CCCNC(=N)N)C(=O)N[C@H](CCCNC(=N)N)C(=O)N[C@H](CCCNC(=N)N)C(=O)N[C@H](C)C(=O)N[C@H](CCCNC(=N)N)C(N)=O — AUC(0-inf) (male human, plasma; intravenous, 10 mg, single dose, healthy volunteers): 1280 ng·h/mL
[11CH3]c1ccc2nc(C3CCC3)n(-c3ccc4[nH]ncc4c3)c2n1 — absorbed dose (extrapolated from mouse biodistribution; human male, gallbladder wall): 4 µSv/MBq
Cc1nc(C#N)ccc1N — relative fluorescence intensity (phosphate buffer with BSA; pH 8, 37 °C, 1% DMSO): 3100 RFU/nmol
CCC(=O)N[C@@H](C)C(=O)OCC(=O)N[C@@H](C)C(=O)O — depolymerization half-life (water; pH 7, 50 °C): 14.1 h
Cn1c(=O)oc2ccc(-c3ccc(CC(C#N)NC(=O)C4CNCCCO4)c(F)c3)cc21 (centres unmarked) — subjects with TEAE (item: glucose urine present; human; 15 mg single dose, fasted): 0%
[11CH3]N1CCN(CCCOc2ccc(=O)n(-c3ccc(Cl)c(Cl)c3)n2)CC1 — maximum uptake (radiotracer; mouse BALB/c male, spleen; intravenous, 15 min): 13.3 ± 2.03 %ID/cc
COC(=O)c1ccc(-c2cn(Cc3cc(Cl)ccc3O[11CH3])nn2)cc1 — distribution volume VT (PET, 2TCM; rhesus macaque, hypothalamus; dose not given): 0.612 mL/cm³
CC(O)c1cc(Cl)ccc1Cn1c(=S)[nH]c(=O)c2[nH]ccc21 (centres unmarked) — exposure ratio (Sprague-Dawley rat, male, plasma; oral, 125 mg/kg/day; reference: rat over human 5 mg): 9.2
Cc1ccc(OCC(=O)N(Cc2cccs2)c2ccn[nH]2)cc1 — AUC(0-t) (male Sprague-Dawley rat, plasma; oral, 10 mg/kg, single dose): 1.64 ng·h/mL
CC(=O)[CH](C(C)=O)[Pt-2]1([S+](C)C)[O]C(C)=CC(C)=[O+]1 (centres unmarked) — Pt eliminated (atomic absorption spectroscopy; rat; 48 h; reference: dose): 8%
OC1(C(F)(F)F)CCN(c2nc(Nc3ccnc(C(F)(F)F)c3)nc(-c3cccc(C(F)(F)F)n3)n2)C1 (centres unmarked) — AUC(0-24h) accumulation ratio (Sprague-Dawley rat, both sexes, plasma; oral, 5 mg/kg daily for 14 days; reference: day 14 over day 1): 2.2
CCN(CC)c1ccc2nc3c4ccccc4/c(=N/c4ccncc4)cc-3oc2c1 — terminal half-life (NMRI mice, infected and noninfected, plasma; oral, 20 mg/kg): ~10 h
O=C(CCc1ccc(CNC(C(=O)OC2CCCC2)C2CCCCC2)cn1)NO (centres unmarked) — Cmax (human, plasma; oral, 20 mg, single dose, patients): 47.4 ng/mL
OC[C@@H]1[C@@H](O)[C@H](O)[C@@H](O)c2nccn21 — pKa of conjugate acid: 6.2
CCOc1ccc2c(c1)C(C)=CC(C)(C)N2c1cc(OCC)cc2c1NC(C)(C)C=C2C — effective dose (liver steatosis and necrosis increase; male BALB/c mice; oral, diet, 90 days): > 10 mg/kg bw/day
CC[C@H](C)[C@H](NC(=O)[C@H](C)NC(=O)CNC(=O)[C@H](Cc1ccccc1)NC(=O)[C@H](CC(N)=O)NC(=O)[C@H](CC(N)=O)NC(=O)[C@H](CO)NC(=O)[C@H](CO)NC(=O)[C@H](Cc1c[nH]cn1)NC(=O)[C@@H](NC(=O)[C@H](CC(C)C)NC(=O)[C@H](Cc1ccccc1)NC(=O)[C@H](CC(N)=O)NC(=O)[C@H](C)NC(=O)[C@H](CC(C)C)NC(=O)[C@H](CCCNC(=N)N)NC(=O)[C@H](CCC(N)=O)NC(=O)[C@@H](NC(=O)[C@H](C)NC(=O)[C@@H]1CSSC[C@H](NC(=O)[C@@H](N)CCCCN)C(=O)N[C@@H](CC(N)=O)C(=O)N[C@@H]([C@@H](C)O)C(=O)N[C@@H](C)C(=O)N[C@@H]([C@@H](C)O)C(=O)N1)[C@@H](C)O)C(C)C)C(=O)N[C@@H](CC(C)C)C(=O)N1CCC[C@H]1C(=O)N1CCC[C@H]1C(=O)N[C@H](C(=O)N[C@@H](CC(N)=O)C(=O)N[C@H](C(=O)NCC(=O)N[C@@H](CO)C(=O)N[C@@H](CC(N)=O)C(=O)N[C@H](C(=O)N[C@@H](Cc1ccc(O)cc1)C(N)=O)[C@@H](C)O)C(C)C)[C@@H](C)O — collision cross section (ion mobility mass spectrometry; nitrogen drift gas; monomer charge +4, compact conformer): 545 ± 14.4 Å²
CC(NC(=O)OC1OC(C(=O)O)C(O)C(O)C1O)c1cc(Cl)ccc1Cn1c(=S)[nH]c(=O)c2[nH]ccc21 (centres unmarked) — exposure ratio (Sprague-Dawley rat, male, plasma; oral, 125 mg/kg/day; reference: rat over human 5 mg): 5.3
CCCC[C@@H]1NC(=O)[C@@H](NC(=O)[C@H](CCC(=O)O)NC(=O)CNC(=O)CN2CCN(CC(=O)O)CCN(CC(=O)O)CCN(CC(=O)O)CC2)CCCCNC(=O)C[C@@H](C(N)=O)NC(=O)[C@H](C(C)C)NC(=O)[C@@H]2CCCN2C(=O)[C@H](CCCNC(=N)N)NC(=O)CNC(=O)[C@H](Cc2c[nH]c3ccccc23)NC(=O)[C@H](CCCNC(=N)N)NC(=O)[C@@H](Cc2ccccc2)NC(=O)[C@H](Cc2c[nH]cn2)NC(=O)[C@H](CCC(=O)O)NC1=O [gallium-67 labelled] — urine excretion (C57 mice, B16/F10 lung metastases; intravenous, 0.037 MBq, 2 h): 90.55 ± 0.38%
C=Cc1ccc([C@H]2C[C@@]3(C)[C@@H](CC[C@@]3(O)C(F)(F)C(F)(F)F)[C@@H]3CCC4=CC(=O)CCC4=C32)cc1 — maximal oral bioavailability (rat liver microsomes; 100 % absorption assumed): 54%
C#CCN(CCCNC(=O)CCCCC[N+]1=C(/C=C/C2=C(Cl)C(=C/C=C3\N(CCCCCC(=O)[O-])c4ccccc4C3(C)C)/CCC2)C(C)(C)c2ccccc21)CCCOc1ccc(Cl)cc1Cl — AUC(0-90 min) (C57BL mouse, plasma; intravenous, 5 mg/kg): 832000 ng·h/mL
CCCC[C@H](NC(C)=O)C(=O)N[C@H]1CC(=O)NCCCC[C@@H](C(=O)N[C@@H](C(=O)N2CCC[C@@H]2C(N)=O)C(C)C)NC(=O)[C@H](Cc2c[nH]c3ccccc23)NC(=O)[C@H](CCCN=C(N)N)NC(=O)[C@@H](Cc2ccc3ccccc3c2)NC(=O)[C@@H]2CCCN2C1=O — mean corpuscular volume (dog; dose not given, day 1, start of treatment): 69.9 fL
N=C(N)NCCC[C@@H]1NC(=O)[C@H](Cc2c[nH]c3ccccc23)NC(=O)[C@@H](CC2CCCCC2)NC(=O)[C@@H]2CCCN2C(=O)[C@@H](NC(=O)CCc2ccccc2)CCCNC1=O — apparent central volume (V1/F) (C57BL/6J mice, spinal cord; intraperitoneal, 1 mg/kg, two-compartment model): 0.06 µg/(ng/g)
CCCCC/C=C/C=C/C(=O)NCC(C)C — relative error (rat plasma; 4000 ng/mL, 30 d, -80 °C, long-term storage high QC; reference: nominal concentration): 7.5%
C#CCOc1ccc(/C=C2\SC(=O)N(CC(=O)NCc3ccccc3)C2=O)cc1 — Kirkwood-Buff integral G2,3 (inverse Kirkwood-Buff integrals; binary solvent mixture; 298.15 K, mole fraction x1 0.60): -365 cm³/mol
CC(C)[C@H](NC(=O)CNC(=O)[C@H](CCC(N)=O)NC(=O)[C@H](C)N)C(=O)O — half-life (LC-MS/MS; human, male, plasma; intravenous, 10 mg/kg three times daily, day 3, first dose, 10 min infusion, geometric mean): 4.2 min
CCCC[C@H](NC(=O)CNC(=O)CNC(=O)CN1CCN(CC(=O)O)CCN(CC(=O)O)CCN(CC(=O)O)CC1)C(=O)N[C@H]1CC(=O)NCCCC[C@@H](C(N)=O)NC(=O)[C@H](Cc2c[nH]c3ccccc23)NC(=O)[C@H](CCCNC(=N)N)NC(=O)[C@@H](Cc2ccccc2)NC(=O)[C@H](Cc2c[nH]cn2)NC1=O [copper-64 labelled] — urinary excretion (C57 mouse female B16/F1 melanoma, urine; intravenous, 0.037 MBq, 24 h): 67.4 ± 1.55%
COCCN(CC(N)=O)C(=O)CN(CCOC)C(=O)CN(CCOC)C(=O)CN(CCOC)C(=O)CN(CCOC)C(=O)CN(CCOC)C(=O)CN(CCC(=O)O)C(=O)CN(CCCCN)C(=O)CN(CCOC)C(=O)CN(CCOC)C(=O)CN(CCOC)C(=O)CN(CCOC)C(=O)CN(CCOC)C(=O)CN(CCOC)C(=O)C(Cc1ccccc1)NC(C)=O (centres unmarked) — pKa of COOH group (potentiometric titration with KOH; 100 x 1 mM KCl): 4.3

Excerpt of the above:
Cc1ccc(-c2ccc(-c3cc4sccc4o3)cn2)nc1 — radiative decay rate constant (TCSPC; toluene): 0.67 ns⁻¹
CC(=O)N[C@H](CSSC[C@H](N)C(=O)O)C(=O)N[C@H](C)C(=O)N[C@H](CCCNC(=N)N)C(=O)N[C@H](CCCNC(=N)N)C(=O)N[C@H](CCCNC(=N)N)C(=O)N[C@H](C)C(=O)N[C@H](CCCNC(=N)N)C(N)=O — AUC(0-inf) (male human, plasma; intravenous, 10 mg, single dose, healthy volunteers): 1280 ng·h/mL
[11CH3]c1ccc2nc(C3CCC3)n(-c3ccc4[nH]ncc4c3)c2n1 — absorbed dose (extrapolated from mouse biodistribution; human male, gallbladder wall): 4 µSv/MBq
